Measurements of several laboratories.
A part holds a random share of what one study measured.

Set 1 — technique: RNA Bind-n-Seq; molecule type: RNA; matrix: in vitro; concentration: 365 nM; baseline: no-protein control; reading: higher = stronger binding; endpoint: RBNS enrichment (R)
Target: RNA binding protein fox-1 homolog 2, RRM domain, GST-SBP tag (RBFOX2, Homo sapiens, UniProt O43251-10, residues 100-194)
Setting: natural RNA segment, single round, ends assumed
Shared flanks, not repeated: GGGAGUUCUACAGUCCGACGAUC … UGGAAUUCUCGGGUGCCAA
Residues (chain): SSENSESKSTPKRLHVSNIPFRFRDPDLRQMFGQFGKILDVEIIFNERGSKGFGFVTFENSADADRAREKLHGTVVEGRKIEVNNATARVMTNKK
Strand = AUGGAAUUAUCUGAGCUCUAUGGCACUGGUUGUUUAGAGUGACUGAUGAAGUGCAACUUUCAAAAACAUUUUUGAUGACAUCACCAGCCUACUGCAGAAGUGCAGGGCAC; result = 0.211
Strand = AUAACAAAACACUGCUUCAAGAUUUACUUUUAAAUCUAAUUUAAGGGGUGUUUUUACUGUGUUUUUGUCGUUUCCUUUUUACGUGUGCUGUGAUGAAAGAGAAAAAUGCA; result = 4.43
Strand = GUAUAUAAUUUGGUUGGUAUUUCACUAUUUAAUUUUUAAGAAGCCUAUUUUACUAGUGUUUUAUAUGAACAAAGUACUGCAGAAGUUAAACCUGUGUUGUAUUUUUUCUG; result = 0.63
Strand = AAAACCUCUCCUCACACUUGGUAUGGAGACUCGACUGAAAAUGAGUUGAGUUUGGUCCUCUCCUUUUCCAAACACUCAGAACACAAAAGUGGAAUCUUCUCCCUACAUAA; result = 0.401
Strand = GGACAUGCUUGGUGCUUUUGGUAUGCUGCAAACACAAAGUGGUGGAACAAGGGUCACUGGACCCUUGGGGAAAGUGGGAAAAGAGCUAUGUGCAAGGGCAGAUGCUCCAA; result = 3.96
Strand = GAAUGCCGAGUGUCAUAAGAAAUUGCAUGCUAUCUUCACUCACAAUCCUGCCCUUCCCUCACAGAGCUGGAACUCCAAGCCUGGCCCCAAAGACCCUCCAUCACGAAGAG; result = 41.7
Strand = GGGAAGCGGGGAGGGGCUGCGUGGCACAGCUAGUGGGCCUCCCCCUGCACAGCCCUGCAUGUACUAGCACCUUCAUCACUCCCCUCAGGGCAUGGUCUCAUCUCCGCAUC; result = 6.46
Strand = GUGGCUUUUUAAUUAACUUGUCUUUCAUUGCACUUCACUCUGCCUGUUUUCAAGGGGAGUAAGAUUGGUAACAUUUGGGGAGACUGUAUCUGUCUACUUAGCGUGGCUGU; result = 1.2

Set 2 — technique: protein binding microarray; molecule type: double-stranded DNA, one strand shown; matrix: in vitro; concentration: not given; baseline: not given; reading: higher = stronger binding; endpoint: E-score
Target: Histone acetyltransferase KAT6A, both winged helices, GST fusion (KAT6A, Homo sapiens, UniProt Q92794, residues 1-181)
Setting: 8-mer, flanks averaged, mean of 2 arrays, mostly near background
Target sequence (chain): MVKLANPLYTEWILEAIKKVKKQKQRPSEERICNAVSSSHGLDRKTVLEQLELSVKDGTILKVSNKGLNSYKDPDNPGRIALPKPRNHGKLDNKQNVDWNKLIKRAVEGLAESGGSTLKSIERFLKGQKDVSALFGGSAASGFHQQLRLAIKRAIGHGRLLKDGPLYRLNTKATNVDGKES
Strand = GTTCTATA; result = -0.0771
Strand = ACCGCGCC; result = 0.332
Strand = AATCACGC; result = 0.0821
Strand = CGGCAAAC; result = 0.273
Strand = ACTGGCAA; result = -0.141
Strand = CAGGGCAG; result = -0.0946
Strand = AGTCCCAC; result = -0.254
Strand = AACAGCAC; result = 0.0689
Strand = ACAGACGA; result = -0.00502
Strand = ATACAGTC; result = -0.137
Strand = CCGGGTGA; result = 0.26
Strand = GGAGGGAC; result = -0.0783
Strand = TGACAACA; result = -0.0864
Strand = ACGATGCT; result = -0.0822
Strand = GATAGGAA; result = -0.113
Strand = CCGCCTGA; result = 0.226
Strand = CCAACGGG; result = 0.0949
Strand = CAGCCGTC; result = 0.16
Strand = AACACTTA; result = -0.119
Strand = ATTTTGTA; result = -0.0469
Strand = AAGCCGGA; result = 0.148
Strand = CTTATCTA; result = -0.05
Strand = TATCGGCA; result = 0.154
Strand = ACAGAACC; result = 0.0204
Strand = GTGCGAAA; result = -0.0362

Set 3 — technique: protein-binding microarray; molecule type: hairpin DNA; matrix: in vitro; concentration: not given; baseline: not given; reading: higher = stronger binding; endpoint: median fluorescence
Target: Runt-related transcription factor 3, Runt domain (RUNX3, Homo sapiens, UniProt Q13761, residues 53-186)
Sequence of UniProt Q13761 (53-186, looked up): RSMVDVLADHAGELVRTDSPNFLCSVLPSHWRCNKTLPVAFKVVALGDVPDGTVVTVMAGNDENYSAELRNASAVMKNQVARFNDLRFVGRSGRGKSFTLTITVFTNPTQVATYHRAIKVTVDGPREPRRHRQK
Setting: whole hairpin DNA, median over replicate spots
Strand = GAGGCCTGTCGCGGTGGGCCTCCTGGCCCACCGCGACAGGCCTCACACTC; result = 5520 a.u.
Strand = GAGGCCTCTCGCGGTTGGCCTCCTGGCCAACCGCGAGAGGCCTCACACTC; result = 5770 a.u.
Strand = GAGGCCTGTTGCGGTTGGCCTCCTGGCCAACCGCAACAGGCCTCACACTC (5mC at 12); result = 5860 a.u.
Strand = GAGGCCTGTTGTGGCGGGCCTCCTGGCCCGCCACAACAGGCCTCACACTC (5mC at 29); result = 5070 a.u.
Strand = GAGGCCTGTGGCGGTTGGCCTCCTGGCCAACCGCCACAGGCCTCACACTC; result = 6120 a.u.
Strand = GAGGCCTGTTGTGGTTGGCCTCCTGGCCAACCACAACAGGCCTCACACTC (5mC at 32); result = 4460 a.u.
Strand = CTCAGTCGTGTGGGCTGGACTCCTGTCCAGCCCACACGACTGAGACACTC (5mC at 37); result = 4660 a.u.
Strand = CTCAGTTCTGTGGGCCGGACTCCTGTCCGGCCCACAGAACTGAGACACTC (5mC at 16 28); result = 4120 a.u.
Strand = GAGGCCTGTTGTGGTAGGCCTCCTGGCCTACCACAACAGGCCTCACACTC; result = 4570 a.u.
Strand = GAGGCCCGTCGCGGTTGGCCTCCTGGCCAACCGCGACGGGCCTCACACTC (5mC at 7); result = 6490 a.u.
Strand = GAGGCCCCGCCGCAACAGCCTCCTGGCTGTTGCGGCGGGGCCTCACACTC (5mC at 8 36); result = 5960 a.u.
Strand = GAGGCCCAAACGCAACAGCCTCCTGGCTGTTGCGTTTGGGCCTCACACTC; result = 4740 a.u.
Strand = GAGGCCCAACCCGAACAGCCTCCTGGCTGTTCGGGTTGGGCCTCACACTC (5mC at 12 32); result = 5280 a.u.
Strand = GAGGCCCAACCCGAACAGCCTCCTGGCTGTTCGGGTTGGGCCTCACACTC (5mC at 32); result = 5020 a.u.
Strand = GAGCCCTGTCGCGGTTGGCCTCCTGGCCAACCGCGACAGGGCTCACACTC (5mC at 4); result = 6190 a.u.
Strand = CTCAGTTCTTTGGGCTGGACTCCTGTCCAGCCCAAAGAACTGAGACACTC; result = 3750 a.u.
Strand = CTCAGTTCTGTGGGCAGGACTCCTGTCCTGCCCACAGAACTGAGACACTC; result = 4280 a.u.
Strand = GAGGCCTGATGTGGTTGGCCTCCTGGCCAACCACATCAGGCCTCACACTC; result = 4720 a.u.
Strand = GAGGCCTGTTGTCGTTGGCCTCCTGGCCAACGACAACAGGCCTCACACTC (5mC at 31); result = 4610 a.u.
Strand = GAGGCCTGTTGCCGTTGGCCTCCTGGCCAACGGCAACAGGCCTCACACTC (5mC at 13 31); result = 4750 a.u.
Strand = GAGGCCTGCGGTGGTTGGCCTCCTGGCCAACCACCGCAGGCCTCACACTC (5mC at 9); result = 5590 a.u.

Set 4 — technique: RNA Bind-n-Seq; molecule type: RNA; matrix: in vitro; concentration: not given; baseline: input RNA pool; reading: higher = stronger binding; endpoint: bound/input enrichment
Target: RING finger protein unkempt homolog, zinc fingers 1-6, GST-SBP tag (UNK, Homo sapiens, UniProt Q9C0B0, residues 30-357)
Setting: RNA with constant flanks, human and mouse sites, ends assumed
Shared flanks, not repeated: GGGAGUUCUACAGUCCGACGAUC … CAACAGAGGAUUGAGCAUCA
Target sequence (chain): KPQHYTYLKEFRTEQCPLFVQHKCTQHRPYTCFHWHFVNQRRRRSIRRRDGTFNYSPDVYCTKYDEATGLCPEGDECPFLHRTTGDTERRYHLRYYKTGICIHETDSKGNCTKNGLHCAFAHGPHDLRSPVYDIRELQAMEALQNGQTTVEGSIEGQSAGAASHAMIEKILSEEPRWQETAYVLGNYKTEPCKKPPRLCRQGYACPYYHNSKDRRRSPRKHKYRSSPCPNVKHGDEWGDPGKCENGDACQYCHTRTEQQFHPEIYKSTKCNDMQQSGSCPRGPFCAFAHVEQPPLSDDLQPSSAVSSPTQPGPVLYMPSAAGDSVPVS
Strand = GCUGAGUCUUCAGGGAAAUGGAAUGGUCUACAUACUCCUGUCAGUGUGCAGUCGAGACUUAACCUGAGUAUAGAGGUCCCGUCACCUUCCCAGCUGGAUCAGUCUGUUUUAGAAGCACUU; result = 0.0968 ratio
Strand = UUUGAAUCCCUGCAGAAGAAAACCAAGAUUGCACUGGAACAUCCAAUGUUGACAGAUAUGCAUGACAAAUUGGUGUUAAAGGGUGACUUUGAUGCUUGCGAGGAGUUGAUUGAAAAAGCU; result = 0.226 ratio
Strand = ACCUGGGGCAUUCAGCCAGCGCCCAUGCCUGUGCCUGUGUGGGUGAUCAUUUUAGCAGUUCUAGCAGGAUUGUUGCUACUGGCUGUUUUGGUAUUUGUAAUGUACAGGAUGGGCUUUUUU; result = 0.374 ratio
Strand = UUUGGUGCCAUUGGUUUCUUCUGGGUUGAGUGAGAUGUUGGAUAUUGCUAUCAAUCGCAGUAGUCUUUCCCCUGUGUGAGGCUGAAGCCUCAGAUUCCUUCUAAACACAGCUAUCUAGAG; result = 0.243 ratio
Strand = CAAUAUAUAUCUCCAUUUCAUGAUAUUCCAAUUUAUGCAGAUAAGGAUGUGUUUCACAUGGUAGUUGAAGUACCACGCUGGUCUAAUGCAAAAAUGGAGAUUGCUACAAAGGACCCUUUA; result = 0.166 ratio
Strand = GAUACCAACUAUGCCUGGCCCACCGCAGAGAUUGCAGUCAUGGGAGCAAAGGGCGCUGUGGAGAUCAUCUUCAAAGGGCAUGAGAAUGUGGAAGCUGCUCAGGCAGAGUACAUCGAGAAG; result = 0.128 ratio
Strand = UAUGGUUAUGAAAAGCCAGAGGAACGCUGGCUCCCUAUCCACACUGUGGAAACCAUCAUGAUUAGUGUCAUUUCUAUGCUGGCAGACCCUAAUGGAGACUCACCUGCUAAUGUUGAUGCU; result = 0.783 ratio
Strand = GCAACAAGUGAAGAAGAAGCUAAAUUUGGUGCCAGACGCUUAGCCCGUAGUCUGCAGAAACUAGGUUUUCAGGUAAUAUUUACAGAUUUUAAGGUUGUUAACGUUCUGGCAGUGUGUAAC; result = 1.38 ratio

A few entries again (set 2):
Strand = ACAGACGA; result = -0.00502
Strand = ATACAGTC; result = -0.137
Strand = CCGGGTGA; result = 0.26
Strand = GGAGGGAC; result = -0.0783
Strand = TGACAACA; result = -0.0864
Strand = ACGATGCT; result = -0.0822
Strand = GATAGGAA; result = -0.113
Strand = CCGCCTGA; result = 0.226
Strand = CCAACGGG; result = 0.0949
Strand = CAGCCGTC; result = 0.16
